Results of several laboratories.
A part holds a random share of what one study measured.
Chain of UniProt Q9NRP7 (whole entry, looked up): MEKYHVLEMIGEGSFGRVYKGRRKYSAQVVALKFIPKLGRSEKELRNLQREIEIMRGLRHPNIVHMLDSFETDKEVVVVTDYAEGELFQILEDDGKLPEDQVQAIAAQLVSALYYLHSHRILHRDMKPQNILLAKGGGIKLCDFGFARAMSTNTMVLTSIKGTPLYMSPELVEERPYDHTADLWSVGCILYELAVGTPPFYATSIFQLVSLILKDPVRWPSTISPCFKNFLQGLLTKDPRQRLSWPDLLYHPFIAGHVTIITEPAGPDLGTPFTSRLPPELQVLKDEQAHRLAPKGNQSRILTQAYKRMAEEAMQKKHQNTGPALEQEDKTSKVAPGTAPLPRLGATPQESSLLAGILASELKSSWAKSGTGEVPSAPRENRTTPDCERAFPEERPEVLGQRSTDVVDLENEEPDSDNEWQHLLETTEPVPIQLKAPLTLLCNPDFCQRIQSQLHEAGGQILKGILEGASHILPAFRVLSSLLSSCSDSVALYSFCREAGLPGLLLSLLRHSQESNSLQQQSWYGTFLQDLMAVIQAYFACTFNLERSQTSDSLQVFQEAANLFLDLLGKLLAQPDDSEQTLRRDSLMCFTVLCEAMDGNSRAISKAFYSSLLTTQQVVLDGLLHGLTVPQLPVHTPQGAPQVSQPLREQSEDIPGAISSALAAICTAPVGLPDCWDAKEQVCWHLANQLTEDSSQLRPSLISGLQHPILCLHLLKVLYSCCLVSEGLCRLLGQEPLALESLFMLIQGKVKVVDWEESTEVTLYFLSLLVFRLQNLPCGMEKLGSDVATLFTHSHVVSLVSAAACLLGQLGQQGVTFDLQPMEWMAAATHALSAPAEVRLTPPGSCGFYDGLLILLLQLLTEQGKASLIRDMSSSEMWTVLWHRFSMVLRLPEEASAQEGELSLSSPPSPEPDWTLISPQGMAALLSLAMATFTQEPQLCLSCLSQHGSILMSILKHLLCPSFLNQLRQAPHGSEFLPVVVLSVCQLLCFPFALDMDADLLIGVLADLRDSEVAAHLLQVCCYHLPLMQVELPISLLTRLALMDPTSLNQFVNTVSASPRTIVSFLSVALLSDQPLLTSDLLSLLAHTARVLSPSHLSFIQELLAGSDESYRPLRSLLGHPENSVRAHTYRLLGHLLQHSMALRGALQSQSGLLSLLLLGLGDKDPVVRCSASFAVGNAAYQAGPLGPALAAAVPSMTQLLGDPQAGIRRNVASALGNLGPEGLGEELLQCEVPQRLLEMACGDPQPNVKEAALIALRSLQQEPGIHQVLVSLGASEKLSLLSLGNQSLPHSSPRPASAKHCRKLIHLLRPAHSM
Chain of UniProt O94804 (whole entry, looked up): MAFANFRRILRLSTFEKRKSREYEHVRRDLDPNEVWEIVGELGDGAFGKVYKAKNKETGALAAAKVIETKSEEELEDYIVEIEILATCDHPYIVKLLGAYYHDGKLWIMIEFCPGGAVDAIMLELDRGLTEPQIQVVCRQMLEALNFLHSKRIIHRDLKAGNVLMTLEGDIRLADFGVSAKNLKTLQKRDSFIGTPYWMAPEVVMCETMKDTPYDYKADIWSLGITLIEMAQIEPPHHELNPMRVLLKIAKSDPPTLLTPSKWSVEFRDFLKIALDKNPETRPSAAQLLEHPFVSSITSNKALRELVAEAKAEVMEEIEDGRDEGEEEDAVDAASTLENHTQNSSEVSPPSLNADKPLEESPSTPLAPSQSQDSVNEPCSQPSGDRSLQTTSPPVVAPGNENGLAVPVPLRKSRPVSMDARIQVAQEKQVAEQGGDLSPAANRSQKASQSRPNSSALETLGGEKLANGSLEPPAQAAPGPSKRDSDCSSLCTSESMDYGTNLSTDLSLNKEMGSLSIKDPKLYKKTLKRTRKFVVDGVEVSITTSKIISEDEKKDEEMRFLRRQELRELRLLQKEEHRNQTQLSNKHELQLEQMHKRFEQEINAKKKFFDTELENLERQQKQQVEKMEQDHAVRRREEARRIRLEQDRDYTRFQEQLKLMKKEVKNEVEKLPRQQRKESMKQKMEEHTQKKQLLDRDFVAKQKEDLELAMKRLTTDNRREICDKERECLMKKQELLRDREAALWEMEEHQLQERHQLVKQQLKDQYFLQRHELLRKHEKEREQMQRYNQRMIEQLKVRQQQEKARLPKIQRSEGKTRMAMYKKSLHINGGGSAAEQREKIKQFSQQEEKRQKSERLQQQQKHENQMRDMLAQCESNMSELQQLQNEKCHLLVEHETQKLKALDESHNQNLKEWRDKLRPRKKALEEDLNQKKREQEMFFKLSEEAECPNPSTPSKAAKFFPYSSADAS
Chain of UniProt P28221 (whole entry, looked up): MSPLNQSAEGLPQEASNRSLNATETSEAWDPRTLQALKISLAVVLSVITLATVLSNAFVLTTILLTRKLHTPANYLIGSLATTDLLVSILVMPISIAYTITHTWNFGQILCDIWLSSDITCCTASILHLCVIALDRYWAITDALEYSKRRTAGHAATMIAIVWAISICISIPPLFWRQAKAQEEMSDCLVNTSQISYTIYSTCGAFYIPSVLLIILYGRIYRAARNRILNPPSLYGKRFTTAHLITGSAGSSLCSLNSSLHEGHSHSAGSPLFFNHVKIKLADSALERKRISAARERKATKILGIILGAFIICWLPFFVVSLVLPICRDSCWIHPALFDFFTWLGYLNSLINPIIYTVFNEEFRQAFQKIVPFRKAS
Chain of UniProt Q15349 (whole entry, looked up): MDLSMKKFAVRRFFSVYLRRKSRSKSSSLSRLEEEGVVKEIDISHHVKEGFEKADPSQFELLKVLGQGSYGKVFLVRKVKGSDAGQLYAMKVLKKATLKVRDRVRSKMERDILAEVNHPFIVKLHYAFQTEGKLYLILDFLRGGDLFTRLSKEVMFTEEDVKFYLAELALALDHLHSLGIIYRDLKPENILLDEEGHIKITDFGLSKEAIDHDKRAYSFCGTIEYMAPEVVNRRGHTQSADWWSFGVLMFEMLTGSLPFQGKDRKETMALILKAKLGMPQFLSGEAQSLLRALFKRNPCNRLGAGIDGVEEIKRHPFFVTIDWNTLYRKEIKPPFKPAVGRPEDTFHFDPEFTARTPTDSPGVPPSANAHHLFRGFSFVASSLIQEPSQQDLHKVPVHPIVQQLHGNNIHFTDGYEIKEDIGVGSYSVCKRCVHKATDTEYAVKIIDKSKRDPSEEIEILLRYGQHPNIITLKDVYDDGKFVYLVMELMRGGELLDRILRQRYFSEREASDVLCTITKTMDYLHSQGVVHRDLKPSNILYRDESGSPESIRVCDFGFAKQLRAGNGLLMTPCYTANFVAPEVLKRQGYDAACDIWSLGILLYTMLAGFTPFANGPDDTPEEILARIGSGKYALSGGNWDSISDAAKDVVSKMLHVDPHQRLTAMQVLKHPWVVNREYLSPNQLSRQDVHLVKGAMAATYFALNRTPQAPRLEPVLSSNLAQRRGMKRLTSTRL
Chain of UniProt P41145 (whole entry, looked up): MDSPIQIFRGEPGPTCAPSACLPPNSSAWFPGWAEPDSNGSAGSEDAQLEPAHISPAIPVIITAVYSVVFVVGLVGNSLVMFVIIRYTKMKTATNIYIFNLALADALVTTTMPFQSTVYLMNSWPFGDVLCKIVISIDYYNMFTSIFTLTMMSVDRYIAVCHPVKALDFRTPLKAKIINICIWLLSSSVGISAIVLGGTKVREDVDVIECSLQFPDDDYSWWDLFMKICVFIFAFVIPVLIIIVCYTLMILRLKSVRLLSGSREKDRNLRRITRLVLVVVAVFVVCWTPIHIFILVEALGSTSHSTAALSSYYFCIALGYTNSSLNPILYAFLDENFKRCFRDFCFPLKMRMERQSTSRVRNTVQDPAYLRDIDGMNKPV
Chain of UniProt P30872 (whole entry, looked up): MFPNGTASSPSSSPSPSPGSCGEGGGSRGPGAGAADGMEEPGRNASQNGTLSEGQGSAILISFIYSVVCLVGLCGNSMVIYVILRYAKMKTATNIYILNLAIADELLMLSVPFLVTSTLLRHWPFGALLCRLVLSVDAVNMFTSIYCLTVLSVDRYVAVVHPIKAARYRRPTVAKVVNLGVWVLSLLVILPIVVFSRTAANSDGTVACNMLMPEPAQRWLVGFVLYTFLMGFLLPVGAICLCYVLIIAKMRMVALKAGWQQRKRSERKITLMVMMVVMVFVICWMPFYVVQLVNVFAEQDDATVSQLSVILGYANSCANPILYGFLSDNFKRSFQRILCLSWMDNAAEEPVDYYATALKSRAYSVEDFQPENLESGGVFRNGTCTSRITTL

Block 1
Compound: NC(N)=NC(=O)c1nc(Cl)c(N2CCCCCC2)nc1N
Effect on: β-arrestin recruitment
Action: agonist
Method: PRESTO-Tango
Concentration: 10 µM
Baseline: untreated
| target | fold over basal |
| --- | --- |
| Somatostatin receptor type 1 (SSTR1, Homo sapiens, UniProt P30872) | 1.01 |
| D(4) dopamine receptor (DRD4, Homo sapiens, UniProt P21917) | 0.83 |
| Opsin-5 (OPN5, Homo sapiens, UniProt Q6U736) | 0.89 |
| G-protein coupled receptor 171 (GPR171, Homo sapiens, UniProt O14626) | 0.6 |
| 5-hydroxytryptamine receptor 1D (HTR1D, Homo sapiens, UniProt P28221) | 0.91 |
| Kappa-type opioid receptor (OPRK1, Homo sapiens, UniProt P41145) | 1.54 fold |
| Probable G-protein coupled receptor 153 (GPR153, Homo sapiens, UniProt Q6NV75) | 0.92 |
| Neuromedin-B receptor (NMBR, Homo sapiens, UniProt P28336) | 0.83 |

Block 2
Species: mouse
Sample: microsomes or S9
Concentration: 2 µM
Time: 0.5 h
| Structure (SMILES) | remaining compound [%] |
| --- | --- |
| O=S1(=O)N=C(N2CCN(c3ccccc3)CC2)c2ccccc21 | < 1 |
| N#Cc1c[nH]c(C(=O)N2CC(=O)NC3CCCCC32)c1 (stereo not shown) | 75.9 |
| O=S(=O)(Nc1cc(-c2cccs2)n[nH]1)c1c[nH]c2ncccc12 | 59 |
| Cc1ccc2c(-n3ccnc3)c(-c3ccc(Cl)cc3Cl)c([S+](C)[O-])nc2c1 (stereo not shown) | 41.8 |
| CCC(CN1CCCC1)n1cncc1-c1cnc(N2CCC(C)CC2)nc1 (stereo not shown) | 62.5 |
| Nc1ccc(Oc2ccnc3ccsc23)c(F)c1 | 35.3 |
| CCCC1CCc2c(sc(NC(=O)c3ccccc3)c2C(=O)O)C1 (stereo not shown) | 21 |
| Cc1nc(C(=O)NC(C)C(C)(C)C)c2n1CCCC2 (stereo not shown) | 23 |

Block 3
SMILES: CNC(=O)Nc1ccc2c(c1)[C@@]1(CC2)OC(=O)N(CC(=O)N(Cc2ccc(F)cc2)[C@@H](C)C(F)(F)F)C1=O
Concentration: 1 µM
| target | assay | remaining binding |
| --- | --- | --- |
| Serine/threonine-protein kinase 36 (STK36, Homo sapiens, UniProt Q9NRP7) | cell-free assay, competition with immobilised ligand | 100% |
| Myosin light chain kinase family member 4 (MYLK4, Homo sapiens, UniProt Q86YV6) | cell-free assay, competition with immobilised ligand | 100% |
| Ribosomal protein S6 kinase alpha-2, N-terminal kinase domain (RPS6KA2, Homo sapiens, UniProt Q15349) | cell-free assay, competition with immobilised ligand | 87% |
| Serine/threonine-protein kinase 10 (STK10, Homo sapiens, UniProt O94804) | cell-free assay, competition with immobilised ligand | 92% |
| Dual specificity tyrosine-phosphorylation-regulated kinase 1B (DYRK1B, Homo sapiens, UniProt Q9Y463) | cell-free assay, competition with immobilised ligand | 100% |
| Cyclin-dependent kinase 19 (CDK19, Homo sapiens, UniProt Q9BWU1) | competition binding | 100% |
| Non-receptor tyrosine-protein kinase TYK2, JH1 (TYK2, Homo sapiens, UniProt P29597) | cell-free assay, competition with immobilised ligand | 92% |
| Hepatocyte growth factor receptor (MET, Homo sapiens, UniProt P08581, Y1235D) | cell-free assay, competition with immobilised ligand | 93% |

Mixed results
| SMILES | target | assay | conditions | quantity | value |
| --- | --- | --- | --- | --- | --- |
| C[S+]([O-])c1ccc(-c2nc(-c3ccncc3)c(-c3ccc(F)cc3)[nH]2)cc1 (stereo not shown) | Dual specificity tyrosine-phosphorylation-regulated kinase 1B (DYRK1B, Homo sapiens, UniProt Q9Y463) | enzyme activity, inhibitor, radiometric | 0.5 µM | remaining activity | 104% |
